Results pooled from the literature.
± marks the error that the study gave.

Compound	tested on	assay	system	setting	scale	endpoint	value
CC[C@H](C)[C@@H]1NC(=O)[C@H](C(C)C)NC(=O)[C@H](C(C)C)NC(=O)[C@H](CC(C)C)NC(=O)C[C@@H](C(=O)N[C@@H](Cc2c[nH]c3ccccc23)C(=O)N[C@@H](CC(N)=O)C(=O)N[C@@H](C)C(=O)N2CCC[C@H]2C(=O)NCC(=O)N[C@@H](Cc2c[nH]c3ccccc23)C(=O)N[C@@H](Cc2ccccc2)C(=O)O)NC(=O)[C@H](C)NC(=O)[C@H](CCC(N)=O)NC(=O)[C@H](C(C)C)NC1=O		HPLC		3 h, 95 °C		thermal stability	stable
CC(C)C[C@@H](NC(=O)[C@@H](CCCNC(=N)N)NC(=O)[C@@H](Cc1c[nH]cn1)NC(=O)[C@@H](Cc1c[nH]c2ccccc12)NC(=O)[C@@H](Cc1c[nH]cn1)NC(=O)[C@@H](Cc1ccccc1)NC(=O)[C@H](NC(=O)[C@@H](Cc1ccc(O)cc1)NC(=O)CNC(=O)CNC(=O)CCOCCOCCOCCNC(=O)CN1CCN(CC(=O)O)CCN(CC(=O)O)CC1)[C@H](C)O)C(=O)N[C@H](CC(N)=O)C(=O)N1CCC[C@@H]1C(=O)O [gallium-68 labelled]		PET	human, right femur bone metastasis			SUVmax	2.8 SUV
CCC(C)C(=O)OC1C2C3(C)CCC(OC4CC(OC)C(OC5OC(C)C(O)C(OC)C5O)C(C)O4)CC3CCC23OC32CCC(C(C)=O)C2(C)C1OC(C)=O (centres unmarked)			Caco-2	10 µM		Papp A→B	1.52 ×10⁻⁶ cm/s
CCCC[C@H](NC(=O)[C@H](Cc1c[nH]c2ccccc12)NC(=O)CNC(=O)[C@H](Cc1ccc(O)cc1)NC(=O)[C@H](C)NC(=O)[C@H](CCC(=O)O)NC(=O)[C@H](Cc1c[nH]cn1)NC(=O)[C@H](Cc1c[nH]cn1)NC(=O)[C@H](Cc1c[nH]cn1)NC(=O)[C@H](Cc1c[nH]cn1)NC(=O)[C@H](Cc1c[nH]cn1)NC(=O)[C@H](Cc1c[nH]cn1)NC(=O)CN1CCN(CC(=O)O)CCN(CC(=O)O)CCN(CC(=O)O)CC1)C(=O)N[C@@H](CC(=O)O)C(=O)N[C@@H](Cc1ccccc1)C(N)=O			MF1 nude mouse, male, HT29-CCK2R xenograft	intravenous, 0.2 µg, 4 h, 111In-labelled	baseline: tumour over kidney	tumour-to-kidney ratio	0.05
CN(C)C(CNC(=O)Nc1cc(C(F)(F)F)ccc1N1CCOCC1)c1ccncc1 (centres unmarked)			mouse, serum	intraperitoneal, 360 mg/kg single dose		serum chloride	114 mmol/L
COc1cc(C(=O)NCCOCCOCCOCCNC(=O)c2ccc([18F])nc2)ccc1NC(=O)C1NC(CC(C)(C)C)C(C#N)(c2ccc(Cl)cc2F)C1c1cccc(Cl)c1F (centres unmarked)			athymic male mice, SJSA-1 xenograft	1 h	baseline: tumour over blood	tumour-to-tissue ratio	1.22 ± 0.02
CCCCCCCC(=O)OC[C@H](NC(=O)[C@H](CO)NC(=O)CN)C(=O)N[C@@H](Cc1ccccc1)C(=O)N[C@@H](CC(C)C)C(=O)N[C@@H](CO)C(=O)N1CCC[C@H]1C(=O)N[C@@H](CCC(=O)O)C(=O)N[C@@H](Cc1cnc[nH]1)C(=O)N[C@@H](CCC(N)=O)C(=O)N[C@@H](CCCNC(=N)N)C(=O)N[C@H](C(=O)N[C@@H](CCC(N)=O)C(=O)N[C@@H](CCC(N)=O)C(=O)N[C@@H](CCCNC(=N)N)C(=O)N[C@@H](CCCCN)C(=O)N[C@@H](CCC(=O)O)C(=O)N[C@@H](CO)C(=O)N[C@@H](CCCCN)C(=O)N[C@@H](CCCCN)C(=O)N1CCC[C@H]1C(=O)N1CCC[C@H]1C(=O)N[C@@H](C)C(=O)N[C@@H](CCCCN)C(=O)N[C@@H](CC(C)C)C(=O)N[C@@H](CCC(N)=O)C(=O)N1CCC[C@H]1C(=O)N[C@@H](CCCNC(=N)N)C(=O)O)C(C)C		ELISA	human, both sexes, plasma	intravenous infusion, 3 µg/kg/h, 65 min infusion		AUC(0-90)	9.15 ± 1.67 ng·h/mL
CC(C)C[C@H](NC(=O)[C@H](CCCCN)NC(=O)[C@H](CCC(=O)O)NC(=O)[C@H](C)NC(=O)[C@@H](NC(=O)[C@H](CCCCN)NC(=O)[C@H](CC(=O)O)NC(=O)[C@H](Cc1ccc(O)cc1)NC(=O)[C@H](Cc1ccccc1)NC(=O)[C@H](C)NC(=O)[C@H](CCCCN)NC(=O)[C@H](CC(C)C)NC(=O)[C@H](Cc1c[nH]c2ccccc12)NC(=O)[C@@H](N)CC(=O)O)C(C)C)C(=O)N[C@@H](CCCCN)C(=O)N[C@@H](CCC(=O)O)C(=O)N[C@@H](C)C(=O)N[C@@H](Cc1ccccc1)C(=O)N1CCC[C@H]1C(=O)N[C@@H](CC(=O)O)C(=O)N[C@@H](Cc1c[nH]c2ccccc12)C(=O)N[C@@H](C)C(=O)N[C@@H](CCCCN)C(=O)N[C@@H](C)C(=O)N[C@@H](C)C(=O)N[C@@H](Cc1ccc(O)cc1)C(=O)N[C@@H](CC(=O)O)C(=O)N[C@@H](CCCCN)C(=O)N[C@@H](C)C(=O)N[C@@H](C)C(=O)N[C@@H](CCC(=O)O)C(=O)N[C@@H](CCCCN)C(=O)N[C@@H](C)C(=O)N[C@@H](CCCCN)C(=O)N[C@@H](CCC(=O)O)C(=O)N[C@@H](C)C(=O)N[C@@H](C)C(=O)O		LC-MS/MS	cynomolgus monkey, male, plasma	IV infusion, 8 mg/kg/dose, day 1, 30 min infusion		Cmax	108 µg/mL
COCCOCCOCCOc1ccc(/C=C/C2=[N+]3C(=C(c4cc(OC)cc(OC)c4)c4c(C)c(I)c(/C=C/c5ccc(OCCOCCOCCOC)cc5)n4[B-]3(F)F)C(C)=C2I)cc1			THF		baseline: methylene blue	fluorescence quantum yield	0.19
CC[C@H](C)C(=O)N1CCC(NC(=O)Nc2ccc(OC(F)(F)F)c(F)c2)CC1			human, plasma	oral, 8 mg, single dose, healthy volunteers		AUC(0-inf)	3690 ng·h/mL
O=C(O)CCC(NP(=O)(O)OCCC[C@@H](NC(=O)CCC(NC(=O)c1ccc([18F])cc1)C(=O)O)C(=O)O)C(=O)O (some centres unmarked)		radioactivity	mouse, CWR22Rv1 xenograft, tumour	1 h		tumour uptake	1.54%
Cc1nc(-c2ccc(Cl)cc2)nc2sc3c(=O)n(CCN4CCOCC4)cnc3c12			porcine brain lipid	100 µg/mL, 18 h, pH 7.4		permeability (Pe)	3.74 ± 0.136 ×10⁻⁶ cm/s
CC(C)[C@H](NC(=O)CNC(=O)[C@H](CCC(N)=O)NC(=O)[C@H](C)N)C(=O)O			human	3 mg/kg single dose		subjects with mild adverse events	33.3%
CC[C@H](C)[C@H](NC(=O)[C@H](CCC(=O)O)NC(=O)[C@H](CCC(=O)O)NC(=O)[C@H](Cc1ccccc1)NC(=O)[C@H](CC(=O)O)NC(=O)CNC(=O)[C@H](CC(N)=O)NC(=O)CNC(=O)CNC(=O)CNC(=O)CNC(=O)[C@@H]1CCCN1C(=O)[C@H](CCCNC(=N)N)NC(=O)[C@@H]1CCCN1C(=O)[C@H](N)Cc1ccccc1)C(=O)N1CCC[C@H]1C(=O)N[C@@H](CCC(=O)O)C(=O)N[C@@H](CCC(=O)O)C(=O)N[C@@H](Cc1ccc(O)cc1)C(=O)N[C@@H](CC(C)C)C(=O)O		LC-MS/MS	human plasma	-20 to 25 °C, three freeze-thaw cycles, nominal 3.0 ng/mL		concentration	0.00299 ± 0.0001 µg/mL
CN[C@](C)(C[18F])C(=O)O	A549 tumour model		host not given, kidney	15 min, tumour-bearing		tracer uptake	18 %ID/g
C=Cc1cc(O)cc2nc(-c3ccc(O)c([76Br])c3)oc12			female C57BL/6 mouse, muscle	3 h, high dose, with: estradiol 20 µg blocking		tissue uptake	0.04 ± 0.02 %ID/g
CSCC[C@H](NC(=O)[C@H](CC(N)=O)NC(=O)[C@@H](N)Cc1ccccc1)C(=O)N[C@@H](CCC(N)=O)C(=O)N[C@@H](C)C(=O)N[C@@H](CCC(N)=O)C(=O)N[C@@H](CCCNC(=N)N)C(=O)N[C@@H](CCCNC(=N)N)C(=O)N[C@@H](Cc1ccccc1)C(=O)N[C@@H](Cc1ccc(O)cc1)C(=O)N[C@@H](CCC(=O)O)C(=O)N[C@@H](C)C(=O)N[C@@H](CC(C)C)C(=O)N[C@@H](Cc1c[nH]cn1)C(=O)N[C@@H](CC(=O)O)C(=O)NCC(=O)NCC(=O)NCC(=O)NCC(=O)N[C@@H](CO)C(=O)N[C@@H](C)C(=O)N[C@@H](CCC(=O)O)C(=O)N[C@@H](C)C(=O)N[C@@H](CCC(=O)O)C(=O)N[C@@H](C)C(=O)N[C@@H](CCCCN)C(=O)N[C@@H](C)C(=O)N[C@@H](CCCCN)C(=O)N[C@@H](C)C(=O)N[C@@H](CCC(=O)O)C(=O)N[C@@H](C)C(=O)N[C@@H](CCC(=O)O)C(=O)N[C@@H](C)C(=O)N[C@@H](CCCCN)C(=O)N[C@@H](C)C(=O)N[C@@H](CCCCN)C(=O)O			EAK peptide fibrils	overnight, 37 °C, PBS, with: EAK to compound ratio 5:1		incorporation into fibrils	16%
CC[C@H](C)[C@H](NC(=O)[C@H](CCCCN)NC(=O)CNC(=O)[C@H](CC(C)C)NC(=O)[C@@H](NC(=O)[C@H](C)NC(=O)[C@H](CCCCN)NC(=O)CNC(=O)[C@H](C)NC(=O)CNC(=O)[C@H](CCCCN)NC(=O)[C@H](CCSC)NC(=O)[C@H](CCCCN)NC(=O)[C@@H](NC(=O)[C@H](Cc1c[nH]c2ccccc12)NC(=O)[C@H](CC(C)C)NC(=O)[C@H](CCC(N)=O)NC(=O)[C@H](CCCCN)NC(=O)[C@H](CC(C)C)NC(=O)[C@@H](N)CC(C)C)[C@@H](C)O)C(C)C)C(=O)N[C@@H](CCCCN)C(=O)NCC(=O)N[C@@H](CC(C)C)C(=O)N[C@@H](CC(C)C)C(=O)O		acrylamide quenching	PC:cholesterol vesicles, 250 µM lipid	2 µM, with: acrylamide		Stern-Volmer constant	1.72 ± 0.16 M⁻¹
C[C@@H]1CC[C@H]2[C@@H](C)CO[C@@H]3O[C@@]4(C)CC[C@@H]1[C@]32OO4			Sprague-Dawley rat, male	intravenous, 5 mg/kg		AUC extrapolated	3.57 ± 1.47%
COC(=O)C[C@](O)(CCCC(C)(C)OC(C)=O)C(=O)O[C@@H]1C(OC)=C[C@]23CCCN2CCc2cc4c(cc2[C@H]13)OCO4			CD1 mouse, large intestine	subcutaneous, 1 mg/kg, 8 h		tissue concentration	19.4 ng/mL
CC(C)[C@@H]1NC(=O)[C@H](Cc2ccccc2)NC(=O)[C@H](Cc2ccc(O)cc2)NC(=O)CCSSC[C@@H](C(=O)N2CCC[C@H]2C(=O)N[C@H](CCCNC(=N)N)C(=O)NCC(N)=O)NC(=O)[C@H](CCC(N)=O)NC1=O			Wistar rat, blood	intravenous, 10 µg/kg single dose, 72 h		glucose	221 ± 19.7 mg/dL
CSCC[C@H](NC(=O)[C@H](CO)NC(=O)[C@H](Cc1ccc(O)cc1)NC(=O)[C@@H](N)CO)C(=O)N[C@@H](CCC(=O)O)C(=O)N[C@@H](Cc1c[nH]cn1)C(=O)N[C@@H](Cc1ccccc1)C(=O)N[C@@H](CCCNC(=N)N)C(=O)N[C@@H](Cc1c[nH]c2ccccc12)C(=O)NCC(=O)N[C@@H](CCCCN)C(=O)N1CCC[C@H]1C(=O)N[C@H](C(=O)NCC(=O)N[C@@H](CCCCN)C(=O)N[C@@H](CCCCN)C(=O)N[C@@H](CCCNC(=N)N)C(=O)N[C@@H](CCCNC(=N)N)C(=O)N1CCC[C@H]1C(=O)N[C@H](C(=O)N[C@@H](CCCCN)C(=O)N[C@H](C(=O)N[C@@H](Cc1ccc(O)cc1)C(=O)N1CCC[C@H]1C(=O)N[C@@H](CC(=O)O)C(=O)NCC(=O)N[C@@H](C)C(=O)N[C@@H](CCC(=O)O)C(=O)N[C@@H](CC(=O)O)C(=O)N[C@@H](CCC(=O)O)C(=O)N[C@@H](CC(C)C)C(=O)N[C@@H](C)C(=O)N[C@@H](CCC(=O)O)C(=O)N[C@@H](C)C(=O)N[C@@H](Cc1ccccc1)C(=O)N1CCC[C@H]1C(=O)N[C@@H](CC(C)C)C(=O)N[C@@H](CCC(=O)O)C(=O)N[C@@H](Cc1ccccc1)C(=O)O)C(C)C)C(C)C)C(C)C			healthy human subjects, plasma	subcutaneous, 80 IU three times weekly, day 1, repository corticotropin injection		AUC(0-last)	0.768 ng·h/mL
CCCC[C@H](NC(=O)CCCCCCCNC(=O)c1ccc(NN)nc1)C(=O)N[C@H]1CC(=O)NCCCC[C@@H](C(N)=O)NC(=O)[C@H](Cc2c[nH]c3ccccc23)NC(=O)[C@H](CCCNC(=N)N)NC(=O)[C@@H](Cc2ccccc2)NC(=O)[C@H](Cc2c[nH]cn2)NC1=O [technetium-99m labelled]			C57 mouse, B16/F1 melanoma, tumor	intravenous, 24 h		uptake	7.13 ± 0.99 %ID/g

Repeated from above:
Compound	tested on	assay	system	setting	scale	endpoint	value
CC[C@H](C)C(=O)N1CCC(NC(=O)Nc2ccc(OC(F)(F)F)c(F)c2)CC1			human, plasma	oral, 8 mg, single dose, healthy volunteers		AUC(0-inf)	3690 ng·h/mL
O=C(O)CCC(NP(=O)(O)OCCC[C@@H](NC(=O)CCC(NC(=O)c1ccc([18F])cc1)C(=O)O)C(=O)O)C(=O)O (some centres unmarked)		radioactivity	mouse, CWR22Rv1 xenograft, tumour	1 h		tumour uptake	1.54%
Cc1nc(-c2ccc(Cl)cc2)nc2sc3c(=O)n(CCN4CCOCC4)cnc3c12			porcine brain lipid	100 µg/mL, 18 h, pH 7.4		permeability (Pe)	3.74 ± 0.136 ×10⁻⁶ cm/s
